Published values from different studies.
Each numbered part is a random draw from the data of one study; scales do not carry over between parts.

Block 1
Target: Fragile X messenger ribonucleoprotein 1, C-terminal low-complexity region (Fmr1, Mus musculus, UniProt P35922)
Method: RNA Bind-n-Seq
Form: RNA
Sample: in vitro
Tested at: 200 nM
Setting: whole 134-nt RNA, ends assumed
Together with: 150 mM KCl
Reference: input library
Reading: higher = stronger binding
All sequences stand within: GGGAGUUCUACAGUCCGACGAUC … UGGAAUUCUCGGGUGUCAAGG
Oligonucleotide | log2 enrichment
UCCUGUGCUACACAUCGUAUGUACCGAAUCGGAAAAAAGGGAAAAAAGGGGAAAAAAGGGAAAGUAUUAUGUUACGCCGUUCGGAUCUGC | -0.367
AGGAAAAUGUUUAUAGGAGGCCUUAGCUGGGACACUACAAAGAAAGAUCUGAAGGACUACUUUUCCAAAUUUGGUGAAGUUGUAGACUGC | -0.782
UCCUUUUUUUUUUUCUUUGAAUGUAUUUAUUUCUUGUAGUCUACUGGUGCUGUUGUGACGGAGAGCCAGACGUACAAAAACCGAGCUGGU | 0.554
UGGCCCUGGUGGCAUGCGGGGAGGAAGGGGUGGCCUCAUGGAUCGUGGUGGUCCCGGUGGAAUGUUCAGAGGUGGCCGUGGUGGAGACAG | 0.711
UCCUCAAGUCCUGUGCUACACAUCGUAUGUACCGAAUCGGGGUGGGUGGUGGAAAGUAUUAUGUUACGCCGUUCGGAUCUGCACUUCCAG | 0.635
UCCUGUGCUACACAUCGUAUGUACCGAAUCGGGUUUUUUGGUUUUUUGGUUUUUUGGGGAAAGUAUUAUGUUACGCCGUUCGGAUCUGCA | -0.387
GUCCUGUGCUACACAUCGUAUGUACCGAAUCGGGGUUUUUGGGUUUUUGGGUUUUUGGAAAGUAUUAUGUUACGCCGUUCGGAUCUGCAC | -0.0697
CCUCAAGUCCUGUGCUACACAUCGUAUGUACCGAAUCGGGGCGGCGGCGGGGAAAGUAUUAUGUUACGCCGUUCGGAUCUGCACUUCCAG | 0.398

Block 2
Target: RNA binding protein fox-1 homolog 2, RRM domain, GST-SBP tag (RBFOX2, Homo sapiens, UniProt O43251-10, residues 100-194)
Method: RNA Bind-n-Seq
Form: RNA
Sample: in vitro
Tested at: 365 nM
Setting: natural RNA segment, single round, ends assumed
Reference: no-protein control
Reading: higher = stronger binding
All sequences stand within: GGGAGUUCUACAGUCCGACGAUC … UGGAAUUCUCGGGUGCCAA
Target sequence (chain): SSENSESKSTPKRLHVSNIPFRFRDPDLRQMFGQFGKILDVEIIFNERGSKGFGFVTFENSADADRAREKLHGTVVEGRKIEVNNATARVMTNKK
Oligonucleotide | RBNS enrichment (R)
AAAACACUUCUGACCCAUAGCUCAGUAUGUCUGAAUUCCAGAGGUCACAUCAGCAUCUUUCUGCUUUGAAAACUCUCACAGCUGUGGCUGCUUCACUUAGAUGCAGUGAG | 0.361
CCCCUUUUCAUGUCCUGACCCAUGUCCUGCCAGUGUUCUUUCCAUGCUUUAAGUUGACUCUUUCUUCCUCCCUUCUCCCUCCAGACCUGUUCCUACCCUUGCUGAACAGC | 1.31
GGCCCCCCAGGUCCACGUCCUUUAAAUUGGCCCUUUGGCUCUUGCCCUUGGCUCCCUUGGGCAGACAGCAGGCUUAGGCCAUUGAUAUCGCAGUUCUUCCUAUCAGCUUC | 0.241
GGGGCUCCCUGCAAUGGACGAGGAGGCUCUAAAGCCAGCCUAAGGCACUGAUUGUGGAAGAUCUGGCAACAUGAAAGAUUGCCAGCCUUUGUGUAUAGGACUGCGUUCGU | 2.44
UUUCCCUCUGUAUACAAGGAUCAGAUUCUUGCUGUGACCCAAGAACUCCUGAAAUCAUAUAGAAAGGCUGGGGUGGGCCCUGUCAUUCGUGGUUGAUUUCAAUACACUCA | 0.439
CCUCGGGGGAUUAAAGGAUCUAAAGAGAAAAUGGCACCUGGUUGUCUUCGUGCUGUGUCUCAUGGGUUUCCAUAGUGAUAAAGACAAGGAAACGCUGCAGGGGCCACAGG | 0.293
CCCCUUCCCGGAAUUUAAACAAUAAUUAAUAGAAAUGAAUUUAUCUGAAUAUAGGAAGCAUAUACUUAAUUGUAACUUCUUAUGUUUAAAGGAAAAUUCUCAGUGUGAUA | 0.466

Block 3
Target: Histone acetyltransferase KAT6A, winged helix 1, GST fusion (KAT6A, Homo sapiens, UniProt Q92794, residues 1-85)
Method: protein binding microarray
Form: double-stranded DNA, one strand shown
Sample: in vitro
Tested at: not given
Setting: 8-mer, flanks averaged, mean of 2 arrays, mostly near background
Reference: not given
Reading: higher = stronger binding
Construct (chain): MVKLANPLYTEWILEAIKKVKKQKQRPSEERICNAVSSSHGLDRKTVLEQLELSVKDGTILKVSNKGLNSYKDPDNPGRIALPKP
Oligonucleotide | E-score
GACGTGTA | -0.0351
GCCGGAAC | 0.315
AAGACAAC | -0.11
GGGGTACC | 0.0367
AGGCTGGA | -0.188
CCATGAGG | 0.0716
GTCAAGAA | -0.146

Other studies, line by line
Substance | target | assay | system | setting | scale | quantity | value
PhoQ, residues 284 288 289 292 302 303 SLANIV | PhoP, residues 12 14 15 18 19 HLGGL (Escherichia coli, UniProt P23836) | Sort-seq, measured: YFP reporter | E. coli | PhoQ-PhoP variant library, together with: 10 µM Mg2+ | reference: high Mg2+ state, higher = stronger signaling | fold induction | 1.38

Some of these lines once more (block 1):
Oligonucleotide | log2 enrichment
UCCUUUUUUUUUUUCUUUGAAUGUAUUUAUUUCUUGUAGUCUACUGGUGCUGUUGUGACGGAGAGCCAGACGUACAAAAACCGAGCUGGU | 0.554
UGGCCCUGGUGGCAUGCGGGGAGGAAGGGGUGGCCUCAUGGAUCGUGGUGGUCCCGGUGGAAUGUUCAGAGGUGGCCGUGGUGGAGACAG | 0.711
UCCUCAAGUCCUGUGCUACACAUCGUAUGUACCGAAUCGGGGUGGGUGGUGGAAAGUAUUAUGUUACGCCGUUCGGAUCUGCACUUCCAG | 0.635
